Experimental data of several laboratories.
Compare with care: the assays were run in different laboratories. ± gives the spread as reported.
SLC6A3: Sodium-dependent dopamine transporter (SLC6A3, Homo sapiens, UniProt Q01959)
UniProt Q01959, sequence (whole entry, unmodified, looked up): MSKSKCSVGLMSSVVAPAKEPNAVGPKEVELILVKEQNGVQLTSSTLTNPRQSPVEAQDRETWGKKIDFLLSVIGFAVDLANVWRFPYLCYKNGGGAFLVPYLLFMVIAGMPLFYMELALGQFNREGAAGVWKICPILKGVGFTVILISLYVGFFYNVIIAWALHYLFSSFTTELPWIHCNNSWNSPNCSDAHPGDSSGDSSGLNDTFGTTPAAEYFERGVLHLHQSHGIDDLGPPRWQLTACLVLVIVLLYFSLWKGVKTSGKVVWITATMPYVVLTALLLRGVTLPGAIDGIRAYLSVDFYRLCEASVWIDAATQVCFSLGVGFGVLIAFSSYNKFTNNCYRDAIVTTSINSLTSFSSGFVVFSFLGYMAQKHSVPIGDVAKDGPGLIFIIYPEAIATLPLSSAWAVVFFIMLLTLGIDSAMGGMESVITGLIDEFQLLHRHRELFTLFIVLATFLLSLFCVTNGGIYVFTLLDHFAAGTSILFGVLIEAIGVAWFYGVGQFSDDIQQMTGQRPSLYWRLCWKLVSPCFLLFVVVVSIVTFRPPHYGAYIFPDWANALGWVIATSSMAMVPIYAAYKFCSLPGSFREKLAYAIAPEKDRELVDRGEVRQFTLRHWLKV

SMILES | target | test | test system | IC50
CCc1ccc2[nH]c3nc(SCCNS(=O)(=O)c4ccc(NC(C)=O)cc4)nnc3c2c1 | Sodium-dependent dopamine transporter (SLC6A3, Homo sapiens, UniProt Q01959, C306A/W84C) | MTSEA-biotin labelling protection | HEK293 cells expressing SLC6A3 | 450 ± 80 nM
CCCC(C(=O)c1ccc(O)c(OC)c1)N1CCCC1 (stereo not shown) | SLC6A3 | transporter uptake, inhibitor, radiometric | – | 7700 nM
COc1cc([N+](=O)[O-])c(OC)cc1CCNCc1ccccc1OC | SLC6A3 | transporter uptake, inhibitor, radiometric | – | > 100000 nM
CNC(C)C(=O)c1ccccc1 (stereo not shown) | SLC6A3 | transporter uptake, inhibitor, radiometric | – | 225 nM
CCN(CC)C(=O)[C@@H]1C=C2c3cccc4[nH]cc(c34)C[C@H]2N(C)C1 | SLC6A3 | transporter uptake, inhibitor, radiometric | – | > 10000 nM
CCCC(C(=O)c1ccc(O)c(O)c1)N1CCCC1 (stereo not shown) | SLC6A3 | transporter uptake, inhibitor, radiometric | – | 92 nM
CCCC(NC)C(=O)c1ccc(C)cc1 (stereo not shown) | SLC6A3 | transporter uptake, inhibitor, radiometric | – | 188 nM
CNC(C)Cc1ccc(O)c(OC)c1 (stereo not shown) | SLC6A3 | transporter uptake, inhibitor, radiometric | – | 5600 nM
CCCC(C(=O)c1ccc2c(c1)OCO2)N(C)C (stereo not shown) | SLC6A3 | transporter uptake, inhibitor, radiometric | – | 233 nM
NCCc1ccc(O)cc1 | SLC6A3 | – | – | 4120 ± 810 nM
CCCC(NC)C(=O)c1ccc(Cl)cc1 (stereo not shown) | SLC6A3 | transporter uptake, inhibitor, radiometric | – | 486 nM
NCCc1ccccc1 | SLC6A3 | – | – | 2740 ± 440 nM
CC(N)C(=O)c1ccc2c(c1)OCO2 (stereo not shown) | SLC6A3 | transporter uptake, inhibitor, radiometric | – | 34000 nM
CCCNC(C)C(=O)c1ccc2c(c1)OCO2 (stereo not shown) | SLC6A3 | transporter uptake, inhibitor, radiometric | – | 2380 nM
CCCC(C(=O)c1ccc2c(c1)OCO2)N1CCCC1 (stereo not shown) | SLC6A3 | transporter uptake, inhibitor, radiometric | – | 53 nM
COC(=O)[C@H]1[C@@H](c2ccc(Cl)c(Cl)c2)C[C@@H]2CC[C@H]1N2CCOCCOCCOCCOCCOCCNC(=O)c1ccc2c(c1)C1(OC2=O)c2ccc(N3CCC3)cc2[Si](C)(C)c2cc(N3CCC3)ccc21 | SLC6A3 | transporter uptake, inhibitor, radiometric | – | 102 nM

For quick reference, copied from above:
SMILES | target | test | test system | IC50
CCN(CC)C(=O)[C@@H]1C=C2c3cccc4[nH]cc(c34)C[C@H]2N(C)C1 | SLC6A3 | transporter uptake, inhibitor, radiometric | – | > 10000 nM
